Measured values of several laboratories.
Lines come from different studies, so protocols differ. Numbers after ± are the reported error.

C=C1CC[C@H](OCCCNC(=O)CCOCCOCCOCCOCCOCCOCCOCCOCCOCCOCCOCCOCCOCCOCCOCCOCCOCCOCCOCCOCCOCCOCCOCCOCCOCCOCCOCCOCCOCCOCCOCCOCCOCCOCCOCCOCCNC(=O)CCN2C(=O)CC(SC[C@H](NC(=O)[C@H](Cc3ccccc3)NC(=O)[C@H](CC(N)=O)NC(=O)[C@H](Cc3c[nH]cn3)NC(=O)[C@@H](NC(=O)[C@H](CC(=O)O)NC(=O)[C@H](CCC(N)=O)NC(=O)[C@H](CC(C)C)NC(=O)[C@H](CCCCN)NC(=O)[C@H](CCCCN)NC(=O)[C@H](CCCNC(=N)N)NC(=O)[C@H](CC(C)C)NC(=O)[C@H](Cc3c[nH]c4ccccc34)NC(=O)[C@H](CCC(=O)O)NC(=O)[C@@H](NC(=O)[C@H](CCCNC(=N)N)NC(=O)[C@H](CCC(=O)O)NC(=O)[C@H](CCSC)NC(=O)[C@H](CO)NC(=O)[C@H](CC(N)=O)NC(=O)[C@H](CC(C)C)NC(=O)[C@H](Cc3c[nH]cn3)NC(=O)[C@H](CCCCN)NC(=O)CNC(=O)[C@H](CC(C)C)NC(=O)[C@H](CC(N)=O)NC(=O)[C@H](Cc3c[nH]cn3)NC(=O)[C@H](CCSC)NC(=O)[C@H](CC(C)C)NC(=O)[C@H](CCC(N)=O)NC(=O)[C@@H](NC(=O)[C@H](CCC(=O)O)NC(=O)[C@H](CO)NC(=O)[C@@H](NC(=O)[C@@H](N)CO)C(C)C)[C@@H](C)CC)C(C)C)C(C)C)C(N)=O)C2=O)C/C1=C/C=C1\CCC[C@]2(C)[C@@H]([C@H](C)CCCC(C)(C)O)CC[C@@H]12 (stereo partly shown) — dose-normalized AUC (cynomolgus monkey; subcutaneous, 0.7 µg/kg every other day, 89 days; reference: reference dose): 1
CCCC[C@H](NC(=O)COCCOCCNC(=O)CN1CCN(CC(=O)O)CCN(CC(=O)O)CC1)C(=O)N[C@H]1CC(=O)NCCCC[C@@H](C(N)=O)NC(=O)[C@H](Cc2c[nH]c3ccccc23)NC(=O)[C@H](CCCNC(=N)N)NC(=O)[C@@H](Cc2ccccc2)NC(=O)[C@H](Cc2c[nH]cn2)NC1=O [copper-64 labelled] — tissue uptake (C57 mice, heart; intravenous, 0.37 MBq, 0.5 h): 2.29 ± 0.54 %ID/g
CC1=C(I)C(C)=[N+]2C1=C(c1ccc(OCCn3cc(CNC(=O)CSC[C@H](NC(=O)c4ccc(-c5nnc(C)nn5)cc4)C(=O)N[C@@H](CC4CCCCC4)C(=O)N[C@H](CCCNC(=N)N)C(=O)N[C@@H](CC4CCCCC4)C(=O)N[C@H](CCCNC(=N)N)C(=O)N[C@@H](CC4CCCCC4)C(=O)N[C@H](CCCNC(=N)N)C(N)=O)nn3)cc1)c1c(C)c(I)c(C)n1[B-]2(F)F — singlet oxygen quantum yield (1 µM, with: DPBF, 525 nm light; reference: rose bengal, erythrosine B): 0.56
N=C(N)NCCC[C@@H]1NC(=O)[C@H](CCCCNC(=O)CNC(=O)CNC(=O)CNC(=O)CC[C@H](NC(=O)CNC(=O)CNC(=O)CNC(=O)CN2CCN(CC(=O)O)CCN(CC(=O)O)CCN(CC(=O)O)CC2)C(=O)NCC(=O)NCC(=O)NCC(=O)NCCCC[C@@H]2NC(=O)[C@@H](Cc3ccccc3)NC(=O)[C@H](CC(=O)O)NC(=O)CNC(=O)[C@H](CCCNC(=N)N)NC2=O)NC(=O)[C@@H](Cc2ccccc2)NC(=O)[C@H](CC(=O)O)NC(=O)CNC1=O [indium-111 labelled] — tissue uptake (female athymic nu/nu mice, muscle; intravenous, 0.5 h): 1.33 ± 0.24 %ID/g
Cc1cc(-c2ccc(NC(=O)[C@H](CCCCNC(=O)CCOCCOCCC(=O)N[C@H](Cc3ccccc3)C(=O)N[C@H]3CSSC[C@@H](C(=O)N[C@H](C(=O)O)[C@@H](C)O)NC(=O)[C@H]([C@@H](C)O)NC(=O)[C@H](CCCCN)NC(=O)[C@@H](Cc4c[nH]c5ccccc45)NC(=O)[C@H](Cc4ccc(O)cc4)NC3=O)NC(=O)CN3CCN(CC(=O)O)CCN(CC(=O)O)CCN(CC(=O)O)CC3)c(C)c2)ccc1N=Nc1ccc2c(S(=O)(=O)O)cc(S(=O)(=O)O)c(N)c2c1O [lutetium-177 labelled] — residence time ratio (patients with metastatic NETs, liver metastases; reference: cpd over 177Lu-EB-TATE): 2 fold
N=C(N)NCCC[C@@H]1NC(=O)[C@H](CCCCNC(=O)CNC(=O)CNC(=O)CNC(=O)CC[C@H](NC(=O)CNC(=O)CNC(=O)CNC(=O)CC[C@H](NC(=O)CN2CCN(CC(=O)O)CCN(CC(=O)O)CCN(CC(=O)O)CC2)C(=O)NCC(=O)NCC(=O)NCC(=O)N[C@@H](CCC(=O)NCC(=O)NCC(=O)NCC(=O)NCCCC[C@@H]2NC(=O)[C@@H](Cc3ccccc3)NC(=O)[C@H](CC(=O)O)NC(=O)CNC(=O)[C@H](CCCNC(=N)N)NC2=O)C(=O)NCC(=O)NCC(=O)NCC(=O)NCCCC[C@@H]2NC(=O)[C@@H](Cc3ccccc3)NC(=O)[C@H](CC(=O)O)NC(=O)CNC(=O)[C@H](CCCNC(=N)N)NC2=O)C(=O)NCC(=O)NCC(=O)NCC(=O)NCCCC[C@@H]2NC(=O)[C@@H](Cc3ccccc3)NC(=O)[C@H](CC(=O)O)NC(=O)CNC(=O)[C@H](CCCNC(=N)N)NC2=O)NC(=O)[C@@H](Cc2ccccc2)NC(=O)[C@H](CC(=O)O)NC(=O)CNC1=O [indium-111 labelled] — tissue uptake (female athymic nu/nu mice, bone; intravenous, 0.5 h): 2.26 ± 0.71 %ID/g
Cc1cc(-c2ccc(NC(=O)[C@H](CCCCNC(=O)CCN3C(=O)CC(SCCC(=O)N[C@H](Cc4ccccc4)C(=O)N[C@H]4CSSC[C@@H](C(=O)N[C@H](C(=O)O)[C@@H](C)O)NC(=O)[C@H]([C@@H](C)O)NC(=O)[C@H](CCCCN)NC(=O)[C@@H](Cc5c[nH]c6ccccc56)NC(=O)[C@H](Cc5ccc(O)cc5)NC4=O)C3=O)NC(=O)CN3CCN(CC(=O)O)CCN(CC(=O)O)CCN(CC(=O)O)CC3)c(C)c2)ccc1N=Nc1ccc2c(S(=O)(=O)O)cc(S(=O)(=O)O)c(N)c2c1O (stereo partly shown) [lutetium-177 labelled] — residence time (patients with metastatic NETs, liver): 0.96 ± 0.16 h
N=C(N)NCCC[C@@H]1NC(=O)[C@H](CCCCNC(=O)CC[C@H](NC(=O)CC[C@H](NC(=O)CN2CCN(CC(=O)O)CCN(CC(=O)O)CCN(CC(=O)O)CC2)C(=O)N[C@@H](CCC(=O)NCCCC[C@@H]2NC(=O)[C@@H](Cc3ccccc3)NC(=O)[C@H](CC(=O)O)NC(=O)CNC(=O)[C@H](CCCNC(=N)N)NC2=O)C(=O)NCCCC[C@@H]2NC(=O)[C@@H](Cc3ccccc3)NC(=O)[C@H](CC(=O)O)NC(=O)CNC(=O)[C@H](CCCNC(=N)N)NC2=O)C(=O)NCCCC[C@@H]2NC(=O)[C@@H](Cc3ccccc3)NC(=O)[C@H](CC(=O)O)NC(=O)CNC(=O)[C@H](CCCNC(=N)N)NC2=O)NC(=O)[C@@H](Cc2ccccc2)NC(=O)[C@H](CC(=O)O)NC(=O)CNC1=O [indium-111 labelled] — tissue uptake (female athymic nu/nu mice, lungs; intravenous, 4 h): 2.06 ± 0.39 %ID/g
CN1C(=O)[C@@H](Cc2ccc(O)cc2)NC(=O)CNC(=O)[C@H](Cc2ccc3ccccc3c2)NC(=O)[C@H](CCCNC(=N)N)NC(=O)[C@H]1CCCNC(=O)c1ccc(CNC(=O)CN2CCN(CC(=O)O)CCN(CC(=O)O)CCN(CC(=O)O)CC2)cc1 [gallium-68 labelled] — time-integrated activity coefficient (adult reference man, from C57BL/6 mice data, urinary bladder contents; dose not given): 0.047 ± 0.005 MBq-h/MBq
CC(C)C[C@H](NC(=O)[C@@H](CCCCNC(=O)CCCCCNC(=O)CN1CCN(CC(=O)O)CCN(CC(=O)O)CCN(CC(=O)O)CC1)NC(=O)[C@H](Cc1ccc(O)cc1)NC(=O)[C@H](CO)NC(=O)[C@H](Cc1c[nH]c2ccccc12)NC(=O)[C@H](Cc1cnc[nH]1)NC(=O)[C@@H]1CCC(=O)N1)C(=O)N[C@@H](CCCNC(=N)N)C(=O)N1CCC[C@H]1C(=O)NCC(N)=O [indium-111 labelled] — tissue uptake (female athymic nude mouse, liver; intravenous, 0.037 MBq, 4 h): 0.97 ± 0.13 %ID/g

Repeated from above:
N=C(N)NCCC[C@@H]1NC(=O)[C@H](CCCCNC(=O)CNC(=O)CNC(=O)CNC(=O)CC[C@H](NC(=O)CNC(=O)CNC(=O)CNC(=O)CC[C@H](NC(=O)CN2CCN(CC(=O)O)CCN(CC(=O)O)CCN(CC(=O)O)CC2)C(=O)NCC(=O)NCC(=O)NCC(=O)N[C@@H](CCC(=O)NCC(=O)NCC(=O)NCC(=O)NCCCC[C@@H]2NC(=O)[C@@H](Cc3ccccc3)NC(=O)[C@H](CC(=O)O)NC(=O)CNC(=O)[C@H](CCCNC(=N)N)NC2=O)C(=O)NCC(=O)NCC(=O)NCC(=O)NCCCC[C@@H]2NC(=O)[C@@H](Cc3ccccc3)NC(=O)[C@H](CC(=O)O)NC(=O)CNC(=O)[C@H](CCCNC(=N)N)NC2=O)C(=O)NCC(=O)NCC(=O)NCC(=O)NCCCC[C@@H]2NC(=O)[C@@H](Cc3ccccc3)NC(=O)[C@H](CC(=O)O)NC(=O)CNC(=O)[C@H](CCCNC(=N)N)NC2=O)NC(=O)[C@@H](Cc2ccccc2)NC(=O)[C@H](CC(=O)O)NC(=O)CNC1=O [indium-111 labelled] — tissue uptake (female athymic nu/nu mice, bone; intravenous, 0.5 h): 2.26 ± 0.71 %ID/g
